Results from different studies.
Each line is one published result; not all experiments were run side by side. ± gives the spread as reported.

SMILES	cell line	test	system	setting	scale	measurement	result
COC(=O)c1ccc(NC(=O)c2sc3nc(-c4ccccc4)cc(C(F)(F)F)c3c2N)cc1	MDA-MB-231	MTT		100 µM, 72 h		viability	8 ± 1%
C[C@@H](NC(=O)[C@@H](C)NC(=O)[C@H](CCCCNC(=O)c1ccc(S(=O)(=O)F)cc1)NC(=O)c1ccc(S(=O)(=O)F)cc1)C(=O)O	Caco-2			10 µM		Papp	< 1 ×10⁻⁶ cm/s
O=C(NCCCN1CCCCCC1)c1ccc2c(c1)sc1nc(-c3ccccc3)cn12	Vero E6, no virus	cytotoxicity, CellTiter-Glo				AC50	7.94 µM
Oc1ccc(C2(c3ccc(O)cc3)c3ccccc3-c3ccccc32)cc1	HepG2 spheroids	annexin V-FITC/PI flow cytometry		1 µM, 24 h		necrotic cells	4.02 ± 0.91%
Nc1c(C(=O)Nc2cccnc2)sc2nc(-c3ccccc3)cc(C(F)(F)F)c12	MDA-MB-231	MTT		100 µM, 72 h		viability	38 ± 1%
O=c1ccc2ccccc2o1	NHEK	caspase-3/7 activity		concentration not given, 24 h		chance response	0.28%
N=C(N)NN=C(C=Cc1ccc([N+](=O)[O-])o1)C=Cc1ccc([N+](=O)[O-])o1	ARPE-19 HiBiT-fibulin-3 knock-in	cell viability, CellTiter-Glo		1.66 µM, 48 h	reference: vehicle	ATP level reduction	7.42%
O=C(Nc1cccnn1)N1CCC(=Cc2cccc(Oc3ccc(C(F)(F)F)cn3)c2)CC1	COS cells expressing human FAAH		COS cell culture supernatant	100 nM, 3 h		concentration	64.4 ± 1.7 nM
Cc1cc(-c2ccccc2)nc(SCC(=O)NCc2ccccc2)c1C#N	MDA-MB-231	MTT		100 µM, 72 h		viability	49 ± 1%
C=CC(=O)N1C/C(=C\c2ccc([N+](=O)[O-])cc2)C(=O)/C(=C/c2ccc([N+](=O)[O-])cc2)C1	ARPE-19 HiBiT-fibulin-3 knock-in	cell viability, CellTiter-Glo		1.66 µM, 48 h	reference: vehicle	ATP level reduction	-5.54%
CC[C@H](C)[C@H]1C(=O)N2CCC[C@H]2C(=O)N[C@@H](CO)C(=O)N[C@H]([C@H](C)O)C(=O)N[C@H](Cc2ccc(O)cc2)C(=O)N[C@@H](CC(C)C)C(=O)NCC(=O)N[C@@H](C(C)C)C(=O)N[C@@H](C)C(=O)N[C@@H](Cc2ccccc2)C(=O)N2CCC[C@H]2C(=O)N1C	MDCK-MDR1		HBSS, 0.25% BSA	2 h		Papp A to B	0.01 ×10⁻⁶ cm/s
CC(C)=CCc1c(O)ccc(C(=O)/C=C/c2ccc(O)cc2)c1O	Vero E6			25 µM		cytotoxicity	0%
CC[C@@H]1NC(=O)[C@H]([C@@H](C)CC)NC(=O)[C@H](CC(C)C)NC(=O)[C@@H]2CCCN2C(=O)[C@@H](CC(C)C)NC(=O)[C@H]2CCCN2C(=O)[C@@H](Cc2ccc(O)cc2)NC(=O)CSC[C@@H](C(=O)O)NC(=O)[C@H]([C@@H](C)O)NC(=O)[C@H]([C@@H](C)CC)NC(=O)[C@H](C)NC1=O	MDCK-MDR1		HBSS, 0.25% BSA	2 h		Papp A to B	2.61 ×10⁻⁶ cm/s
O=C(Nc1cnccc1Cl)N1CCN(Cc2ccc3c(c2)OC(F)(F)O3)CC1	COS cells expressing human FAAH			100 nM, 0 h		supernatant concentration	84.4 ± 7.1 nM
COc1cc(CNC(=O)c2sc3nc(C)cc(-c4ccccc4)c3c2N)cc(OC)c1OC	MDA-MB-231	MTT		100 µM, 72 h		viability	48 ± 5%
O=C(/C=C/c1ccc(O)c(O)c1/C=C/c1ccc(O)c(O)c1)O[C@H](Cc1ccc(O)c(O)c1)C(=O)O	Vero E6			200 µM		cytotoxicity	25%
CC(C)C[C@@H](NC(=O)[C@H](C)NC(=O)CNC(=O)[C@@H](NC=O)C(C)C)C(=O)N[C@@H](C)C(=O)N[C@@H](C(=O)N[C@H](C(=O)N[C@@H](C(=O)N[C@@H](Cc1c[nH]c2ccccc12)C(=O)N[C@H](CC(C)C)C(=O)N[C@@H](Cc1ccc2[nH]ccc2c1)C(=O)N[C@H](CC(C)C)C(=O)N[C@@H](Cc1c[nH]c2ccccc12)C(=O)N[C@@H](C(=O)N[C@@H](Cc1c[nH]c2ccccc12)C(=O)NCCO)C(C)C)[C@H](C)O)C(C)C)C(C)C	P388 (mouse)	cytotoxicity, WST-1		92 h		IC50	0.416 ± 0.089 µM
Cc1cc(C(C)(C)c2ccc(O)c(C)c2)ccc1O	HepG2 spheroids	flow cytometry, item: phospho-histone H3		40 µM, 24 h	reference: solvent control	mitotic cells	1.48 fold
COC(=O)CNC(=O)CSc1nc(C)cc(C)c1C#N	MDA-MB-231	MTT		100 µM, 72 h		viability	78 ± 3%
CC(c1ccccc1)(c1ccc(O)cc1)c1ccc(O)cc1	HepG2 spheroids	annexin V-FITC/PI flow cytometry		40 µM, 24 h		necrotic cells	6.74 ± 2.33%
Oc1cc(Cl)ccc1Oc1ccc(Cl)cc1Cl	HepG2	cell membrane permeability		concentration not given, 24 h, necrosis		response probability	99.7%
CC(C)C[C@@H]1NC(=O)[C@@H](CCCNC(=N)N)NC(=O)[C@@H](Cc2ccc(O)cc2)NC(=O)[C@H]2CCCN2C(=O)[C@H](CC(C)C)NC(=O)[C@H](CC(C)C)NC(=O)[C@@H]2CCCN2C(=O)[C@H]([C@@H](C)O)NC(=O)[C@H]([C@@H](C)O)NC(=O)CNC(=O)CNC1=O	MDCK-MDR1		HBSS, 0.25% BSA	2 h		Papp A to B	0.45 ×10⁻⁶ cm/s
COc1ccc(C(C)(C)c2cnc(SCCOc3ccc(-n4ccnc4)cc3)n2-c2ccc(F)cc2)cc1OC	sandwich-cultured human hepatocytes	gene induction, inducer, item: CYP2B6 mRNA		48 h		EC50	2.1 µM
CC(C)C[C@@H](NC(=O)[C@H](C)NC(=O)CNC(=O)[C@@H](NC=O)C(C)C)C(=O)N[C@@H](C)C(=O)N[C@@H](C(=O)N[C@H](C(=O)N[C@@H](C(=O)N[C@@H](Cc1c[nH]c2ccccc12)C(=O)N[C@H](CC(C)C)C(=O)N[C@@H](Cc1cc2ccccc2[nH]1)C(=O)N[C@H](CC(C)C)C(=O)N[C@@H](Cc1c[nH]c2ccccc12)C(=O)N[C@H](CC(C)C)C(=O)N[C@@H](Cc1c[nH]c2ccccc12)C(=O)NCCO)C(C)C)C(C)C)C(C)C	P388 (mouse)	cytotoxicity, WST-1		92 h		IC50	0.00062 ± 0.00013 µM

SMILES	cell line	test	system	setting	scale	measurement	result
N.N.O=C([O-])C1(C(=O)[O-])CCC1.[Pt+2]	MDA-MB-231	cell viability, MTT		48 h		IC50	102 ± 7.11 µM
CCOC(=O)c1ccc(NC(=O)c2sc3nc(C)cc(-c4ccccc4)c3c2N)cc1	MDA-MB-231	MTT		100 µM, 72 h		viability	40 ± 4%
O=C(Nc1cccnn1)N1CCC(=Cc2cccc(Oc3ccc(C(F)(F)F)cn3)c2)CC1	COS cells expressing human FAAH		cell lysate	100 nM, 24 h		intracellular concentration	34 ± 2.3 nM
COc1ccc(CC(=O)Nc2nc3c(s2)CCc2ccccc2-3)cc1OC	human cells					CC50	> 20 µM
Nc1nc(CC(O)c2ccc(Cl)cc2)c(Br)c(=O)[nH]1 (centres unmarked)	MDCK	cell morphology alteration				minimum cytotoxic concentration	> 100 µM
CC(C)[C@H]1C(=O)N[C@@H](CCCN=C(N)N)C(=O)NCC(=O)N[C@@H](CC(=O)O)C(=O)N[C@H](Cc2ccccc2)C(=O)N1C	Caco-2			20 µM		Papp B to A	0.0745 ×10⁻⁶ cm/s
CCCC(=O)NC(c1cccs1)c1ccc2cccnc2c1O (centres unmarked)	human cells					CC50	> 20 µM
CCSc1nc2ccccc2n1Cc1nnc(-c2ccc(OC)cc2)o1	neutrophils		fresh heparinized human blood	200 µg/mL, 30 min		viability	69.5 ± 4%
Cc1cc(C)c(C#N)c(SCC(=O)Nc2cccnc2)n1	MDA-MB-231	MTT		100 µM, 72 h		viability	77 ± 6%
O=NN1CC2CC(C1)c1cc3nccnc3cc12	TK6 expressing CYP3A4			50 µM, 4 h, without S9	reference: vehicle	relative survival	84%
CCn1c(-c2nonc2N)nc2cnc(Oc3cccc(NC(=O)c4ccc(OCCN5CCOCC5)cc4)c3)cc21	human cells					CC50	> 20 µM
O=c1c(O[C@@H]2O[C@H](CO)[C@H](O)[C@H](O)[C@H]2O)c(-c2ccc(O)c(O)c2)oc2cc(O)cc(O)c12	Caco-2	CCK-8		2.5 µM, 24 h		viability	108%
CCCc1ccc(-c2ccc([C@@H](CO)C(=O)N[C@H](C)c3ccccc3)cc2)cc1	MDCK-MDR1				reference: B-to-A over A-to-B	efflux ratio	2
COc1ccc(C[C@@H]2c3cc(Oc4cc(C[C@@H]5c6cc(O)c(OC)cc6CCN5C)ccc4O)c(OC)cc3CCN2C)cc1	Vero E6			12.5 µM		cytotoxicity	0%
CCN(CC)CCCC(C)Nc1ccnc2cc(Cl)ccc12 (centres unmarked)	Vero E6			concentration not given, 4 (unit not given), with: verapamil		unbound fraction in cells	0.00023
CC(C)(c1ccc(O)cc1)c1ccc(O)cc1	HepG2 spheroids, dissociated	annexin V-FITC/PI flow cytometry		10 µM, 96 h		early apoptotic cells	9.15 ± 5.89%
O=C(Nc1cnccc1Cl)N1CCN(Cc2ccc3c(c2)OC(F)(F)O3)CC1	COS cells expressing human FAAH		cell lysate	100 nM, 0 h, quantification limit 5 nM		compound concentration	not detected
COc1cc(CNC(=O)c2sc3nc(C)cc(C(F)(F)F)c3c2N)cc(OC)c1OC	MDA-MB-231	MTT		100 µM, 72 h		viability	25 ± 3%
O=S(=O)(c1ccc(O)cc1)c1ccc(O)cc1	HepG2 spheroids	annexin V-FITC/PI flow cytometry		10 µM, 24 h		necrotic cells	8.8 ± 2.43%
CC(C)CC(=O)OC[C@H]1O[C@@](C#N)(c2ccc3c(N)ncnn23)[C@H](O)[C@@H]1O	Caco-2			0.9 µM, 2 h, with: verapamil 100 µM		efflux ratio	2.22
CN(C(=O)n1cnc(-c2ccc[n+]([O-])c2)c1)C1CCCCC1	COS cells expressing human FAAH		COS cell culture supernatant	100 nM, 1 h		concentration	100.5 ± 1 nM
CC(C)C[C@H]1C(=O)N(C)[C@@H](CC(C)C)C(=O)N[C@H](Cc2ccc(O)cc2)C(=O)N2CCC[C@@H]2C(=O)N[C@H]([C@H](C)O)C(=O)NCC(=O)NCC(=O)N[C@@H](CO)C(=O)N[C@@H](C(C)C)C(=O)N[C@@H](C)C(=O)N[C@@H](C)C(=O)N[C@@H](Cc2ccccc2)C(=O)N1C	MDCK-MDR1		HBSS, 0.25% BSA	2 h		Papp A to B	0.12 ×10⁻⁶ cm/s
C=C[C@@](C)(/C=C/c1ccc(O)cc1)CCC=C(C)C	Vero E6			6.25 µM		cytotoxicity	0%
